Results gathered from unrelated publications.
Every numbered part comes from another study and shows a few of its results, in no order. Values joined by “and” are separate records of one study, mostly repeats; a detail may differ.

Series 1
Cell line: HEK-293T/ACE2
Concentration: 10 µM
Time: 16 h
Reference: vehicle
| Structure (SMILES) | viability |
| --- | --- |
| CCC(C)(C)C(=O)O[C@H]1C[C@@H](C)C=C2C=C[C@H](C)[C@H](CC[C@@H]3C[C@@H](O)CC(=O)O3)[C@H]21 | 110% |
| [H]/N=C(/NCCCCC)N/N=C/c1c[nH]c2ccc(OC)cc12 | 93.4% |
| C/C(=C\C(=O)OCCCCCCCCC(=O)O)C[C@@H]1OC[C@H](C[C@@H]2O[C@H]2[C@@H](C)[C@H](C)O)[C@@H](O)[C@H]1O | 102% |
| CC(=O)N(CC(O)CO)c1c(I)c(C(=O)NCC(O)CO)c(I)c(C(=O)NCC(O)CO)c1I (stereo not shown) | 104% |
| CCCCCCCCCCC[C@@H](C[C@@H]1OC(=O)[C@H]1CCCCCC)OC(=O)[C@H](CC(C)C)NC=O | 90.8% |
| Nc1nnc(-c2cccc(Cl)c2Cl)c(N)n1 | 102% |
| Cc1cccn2c(=O)c(-c3nnn[nH]3)cnc12 | 100% |
| COC(=O)C1=C(C)NC(C)=C(C(=O)OC(C)C)C1c1cccc2nonc12 (stereo not shown) | 99.8% |
| O=C1OC2(c3ccc(O)cc3Oc3cc(O)ccc32)c2ccccc21 | 98.3% |

Series 2
SMILES: CNC(=N)NCCC[C@H](NC(=O)[C@H](CC(C)C)NC(=O)NNC(=O)[C@H](Cc1ccccc1)NC(=O)[C@H](CO)NC(=O)[C@H](CC(N)=O)NC(=O)[C@@H](Cc1cccnc1)NC(=O)[C@H](N)Cc1ccc(O)cc1)C(=O)NCC(N)=O
Concentration: 0.1 µM
Reference: DMSO
| cell line | assay | conditions | viability |
| --- | --- | --- | --- |
| sample BA colorectal tumour organoid |  |  | 81.2% |
| sample C colorectal tumour organoid |  | replicate 2 | 99.7% |
| sample B colorectal tumour organoid |  |  | 109% |
| sample I colorectal tumour organoid |  |  | 127% |
| sample C colorectal tumour organoid |  |  | 94.3% |
| normal-adjacent epithelium patient-derived organoids sample H | CellTiter-Glo |  | 117% and 95.8% |
| normal-adjacent epithelium patient-derived organoids sample F | CellTiter-Glo |  | 99.6% and 113% |

Series 3
Cell line: A-375
Concentration: 100 µM
Time: 36 h
| Structure (SMILES) | viability |
| --- | --- |
| C[C@]12CCC(=O)C=C1CC[C@@H]1[C@@H]2C(=O)C[C@]2(C)C(=O)CC[C@@H]12 | 96.5% |
| CCNCC(O)c1cccc(O)c1 (stereo not shown) | 101% |
| Cl[C@H]1[C@H](Cl)[C@@H](Cl)[C@@H](Cl)[C@H](Cl)[C@H]1Cl | 1.2% |
| CCC(=O)O[C@H]1CC[C@H]2[C@@H]3CC[C@H]4CC(=O)[C@H](C)C[C@]4(C)[C@H]3CC[C@]12C | 24% |
| COC(=O)Nc1nc2ccccc2[nH]1 | 45.6% |
| C[C@]12CCC(=O)C(O)=C1CC[C@@H]1[C@@H]2CC[C@]2(C)C(=O)CC[C@@H]12 | 81.9% |
| CCCC[N+]1(C)[C@@H]2C[C@@H](OC(=O)[C@H](CO)c3ccccc3)C[C@H]1[C@@H]1O[C@@H]12 (stereo partly shown) | 97.4% |
| COc1ccc2c(c1)[C@]13CCCC[C@@H]1[C@H](C2)N(C)CC3 | 112% |

Further values, each from its own experiment
| Structure (SMILES) | cell line | assay | conditions | how to read | endpoint | result |
| --- | --- | --- | --- | --- | --- | --- |
| CCN(CCO)CCCOc1ccc2c(Nc3cc(CC(=O)Nc4cccc(F)c4)[nH]n3)ncnc2c1 | HH | CCK-8 | 2 µM, 48 h | reference: untreated | viability | 68.8% |

Repeated from above (series 1):
| Structure (SMILES) | viability |
| --- | --- |
| [H]/N=C(/NCCCCC)N/N=C/c1c[nH]c2ccc(OC)cc12 | 93.4% |
| C/C(=C\C(=O)OCCCCCCCCC(=O)O)C[C@@H]1OC[C@H](C[C@@H]2O[C@H]2[C@@H](C)[C@H](C)O)[C@@H](O)[C@H]1O | 102% |
| CC(=O)N(CC(O)CO)c1c(I)c(C(=O)NCC(O)CO)c(I)c(C(=O)NCC(O)CO)c1I (stereo not shown) | 104% |
